Assay results pooled from the literature.
Compare with care: the assays were run in different laboratories. ± gives the spread as reported.

SMILES = CCCC[C@H](NC(=O)CNC(=O)CNC(=O)c1ccc(NN)nc1)C(=O)N[C@H]1CC(=O)NCCCC[C@@H](C(N)=O)NC(=O)[C@H](Cc2c[nH]c3ccccc23)NC(=O)[C@H](CCCNC(=N)N)NC(=O)[C@@H](Cc2ccccc2)NC(=O)[C@H](Cc2c[nH]cn2)NC1=O [technetium-99m labelled]; system = C57 mice bearing B16/F1 melanoma; conditions = dose not given, 4 h post-injection; how to read = baseline: tumour uptake at 2 h; quantity = tumour radioactivity retained; value = 93.6%
SMILES = CC[C@H]1c2cc3[nH]c4c(c3C)C(=O)[C@H](C(=O)OC)c4c3nc(cc4[nH]c(cc(n2)[C@@H]1C)c(C(C)=O)c4C)[C@@H](C)[C@@H]3CCC(=O)NCC(=O)N[C@H](CC(=O)O)C(=O)N[C@H](CCC(=O)O)C(=O)N[C@@H](C(=O)N[C@H](CC(=O)O)C(=O)NCC(=O)N[C@H](CO)C(=O)NCC(=O)N[C@H](CCCCN)C(N)=O)C(C)C; system = nude mice, HT-1080 xenograft; conditions = intravenous, 25 nmol, 5 h to 24 h, low folate receptor tumour; quantity = tumour fluorescence change; value = decreased
SMILES = N=C(N)NCCC[C@@H]1NC(=O)[C@H](CCCCNC(=O)CC[C@H](NC(=O)CCOCCOCCOCCOCCNC(=O)CN2CCN(CC(=O)O)CCN(CC(=O)O)CCN(CC(=O)O)CC2)C(=O)NCCCC[C@@H]2NC(=O)[C@@H](Cc3ccccc3)NC(=O)[C@H](CC(=O)O)NC(=O)CNC(=O)[C@H](CCCNC(=N)N)NC2=O)NC(=O)[C@@H](Cc2ccccc2)NC(=O)[C@H](CC(=O)O)NC(=O)CNC1=O [indium-111 labelled]; system = athymic nude mice, female, U-87 MG glioma xenograft, tumour and lungs; conditions = intravenous, 4 h; how to read = baseline: tumour over lungs; quantity = tumour to tissue ratio; value = 3.15 ± 0.4
SMILES = CC[C@@]1(O)C(=O)OCc2c1cc1n(c2=O)Cc2cc3cc(OC(=O)CCCC(=O)NCC(=O)N[C@@H](Cc4ccccc4)C(=O)N[C@@H](Cc4ccccc4)C(=O)N[C@@H](Cc4ccc(OP(=O)(O)O)cc4)C(=O)NCCSSCCNC(=O)CCC(=O)N[C@@H](CCC(=O)O)C(=O)N[C@@H](CCCNC(=N)N)C(=O)NCC(=O)N[C@@H](CC(=O)O)C(=O)O)ccc3nc2-1; assay = LC-MS; system = nude mice, HepG2 xenograft, tumour; conditions = intravenous, 3 mg/kg HCPT equivalent, 24 h; how to read = baseline: free HCPT; quantity = tumour accumulation; value = 13.6 fold
SMILES = CC(C)C[C@H](NC(=O)C[C@H](O)[C@H](CC(C)C)NC(=O)[C@H](Cc1c[nH]cn1)NC(=O)CNC(=O)[C@@H](NC(=O)[C@H](C)NC(=O)[C@H](Cc1c[nH]c2ccccc12)NC(=O)[C@H](CCC(N)=O)NC(=O)[C@@H](Cc1ccccc1)NC(=O)c1ccc(NC(=O)CNC(=O)CCC(C(=O)O)N2CCN(CC(=O)O)CCN(CC(=O)O)CC2)cc1)C(C)C)C(N)=O (some centres unmarked) [fluorine-18 labelled]; assay = gamma counting; system = nude mice with PC-3 xenograft, tumour; conditions = 2 h post injection, with: AMBA 10 mg/kg blocking; quantity = tumour uptake; value = 1.8 ± 0.3 %ID/g
SMILES = C[C@@H]1NC(=O)[C@H](CCC(=O)O)NC(=O)CNC(=O)[C@H](CC(=O)O)NC(=O)CNC(=O)[C@H](CCCCNC(=O)CCCCCNC(=O)[C@H](CS)NC(=O)CCCCCNC(=O)CN2CCN(CC(=O)O)CCN(CC(=O)O)CCN(CC(=O)O)CC2)NC(=O)[C@@H](Cc2ccc(O)cc2)NC1=O [gallium-68 labelled]; system = male nude mice, CL1-5 xenograft; conditions = 10 min; quantity = tumour to muscle ratio; value = 2.75 ± 1
SMILES = N=C(N)NCCC[C@@H]1NC(=O)[C@H](CCCCNC(=O)CNC(=O)CNC(=O)CNC(=O)CC[C@H](NC(=O)c2ccc(NN=Cc3ccccc3S(=O)(=O)O)nc2)C(=O)NCC(=O)NCC(=O)NCC(=O)NCCCC[C@@H]2NC(=O)[C@@H](Cc3ccccc3)NC(=O)[C@H](CC(=O)O)NC(=O)CNC(=O)[C@H](CCCNC(=N)N)NC2=O)NC(=O)[C@@H](Cc2ccccc2)NC(=O)[C@H](CC(=O)O)NC(=O)CNC1=O [technetium-99m labelled]; system = female athymic nu/nu mice, U-87 MG glioma, tumour; conditions = intravenous, dose not given, 120 min, tumour weight 0.1-0.25 g; quantity = tumour uptake; value = 8 to 14 %ID/g
SMILES = N=C(N)NCCC[C@@H]1NC(=O)[C@H](CCCCNC(=O)CCOCCOCCOCCOCCNC(=O)CN2CCN(CC(=O)O)CCN(CC(=O)O)CCN(CC(=O)O)CC2)NC(=O)[C@@H](Cc2ccccc2)NC(=O)[C@H](CC(=O)O)NC(=O)CNC1=O [indium-111 labelled]; system = athymic nude mice, female, U-87 MG glioma xenograft, tumour and brain; conditions = intravenous, 72 h; how to read = baseline: tumour over brain; quantity = tumour to tissue ratio; value = 37.2 ± 10.4
SMILES = CC[C@@]1(OC(=O)CCC(=O)NCCCC[C@H](NC(=O)[C@H](Cc2ccccc2)NC(=O)[C@H](Cc2ccccc2)NC(=O)CCSC2=C(/C=C/C3=[N+](C)c4ccccc4C3(C)C)CCC/C2=C\C=C2\N(C)c3ccccc3C2(C)C)C(=O)N[C@@H](CCCCNC(=O)CCCC[C@@H]2SC[C@@H]3NC(=O)N[C@@H]32)C(=O)O)C(=O)OCc2c1cc1n(c2=O)Cc2cc3ccccc3nc2-1; assay = fluorescence imaging; system = BALB/c nude mice with 4T1 tumour; conditions = intravenous, 0.05 µmol/kg, 24 h post injection; how to read = baseline: tumour over healthy tissue; quantity = tumour to normal tissue ratio; value = 11.1
SMILES = N=C(N)NCCC[C@@H]1NC(=O)[C@H](CCCCNC(=O)CCOCCOCCOCCOCCNC(=O)CC[C@H](NC(=O)CCOCCOCCOCCOCCNC(=O)CC[C@H](NC(=O)CN2CCN(CC(=O)O)CCN(CC(=O)O)CCN(CC(=O)O)CC2)C(=O)NCCOCCOCCOCCOCCC(=O)N[C@@H](CCC(=O)NCCOCCOCCOCCOCCC(=O)NCCCC[C@@H]2NC(=O)[C@@H](Cc3ccccc3)NC(=O)[C@H](CC(=O)O)NC(=O)CNC(=O)[C@H](CCCNC(=N)N)NC2=O)C(=O)NCCOCCOCCOCCOCCC(=O)NCCCC[C@@H]2NC(=O)[C@@H](Cc3ccccc3)NC(=O)[C@H](CC(=O)O)NC(=O)CNC(=O)[C@H](CCCNC(=N)N)NC2=O)C(=O)NCCOCCOCCOCCOCCC(=O)NCCCC[C@@H]2NC(=O)[C@@H](Cc3ccccc3)NC(=O)[C@H](CC(=O)O)NC(=O)CNC(=O)[C@H](CCCNC(=N)N)NC2=O)NC(=O)[C@@H](Cc2ccccc2)NC(=O)[C@H](CC(=O)O)NC(=O)CNC1=O [indium-111 labelled]; system = athymic nude mice, female, U-87 MG glioma xenograft, tumour and lungs; conditions = intravenous, 4 h; how to read = baseline: tumour over lungs; quantity = tumour to tissue ratio; value = 3.86 ± 1.09
SMILES = CCCC[C@H](NC(=O)CCCCCCCNC(=O)c1ccc(NN)nc1)C(=O)N[C@H]1CC(=O)NCCCC[C@@H](C(N)=O)NC(=O)[C@H](Cc2c[nH]c3ccccc23)NC(=O)[C@H](CCCNC(=N)N)NC(=O)[C@@H](Cc2ccccc2)NC(=O)[C@H](Cc2c[nH]cn2)NC1=O [technetium-99m labelled]; system = B16/F1 melanoma-bearing C57 mice, tumour; conditions = 4 h post-injection; how to read = baseline: uptake at 2 h; quantity = tumour retention; value = 97.2%
